{"data": "Published values of several laboratories", "USP49 ZnF-UBD domain": "Ubiquitin carboxyl-terminal hydrolase 49, ZnF-UBD domain (USP49, Homo sapiens, UniProt Q70CQ1)", "CSF1R": "Macrophage colony-stimulating factor 1 receptor (CSF1R, Homo sapiens, UniProt P07333)", "EPHB6": "Ephrin type-B receptor 6 (EPHB6, Homo sapiens, UniProt O15197)", "CSK": "Tyrosine-protein kinase CSK (CSK, Homo sapiens, UniProt P41240)", "note": "Each line is one published result; not all experiments were run side by side. “And” joins repeats or separate records; there may be more than shown. ± marks the error that the study gave.", "chain of UniProt P51575 (whole entry, unmodified, looked up)": "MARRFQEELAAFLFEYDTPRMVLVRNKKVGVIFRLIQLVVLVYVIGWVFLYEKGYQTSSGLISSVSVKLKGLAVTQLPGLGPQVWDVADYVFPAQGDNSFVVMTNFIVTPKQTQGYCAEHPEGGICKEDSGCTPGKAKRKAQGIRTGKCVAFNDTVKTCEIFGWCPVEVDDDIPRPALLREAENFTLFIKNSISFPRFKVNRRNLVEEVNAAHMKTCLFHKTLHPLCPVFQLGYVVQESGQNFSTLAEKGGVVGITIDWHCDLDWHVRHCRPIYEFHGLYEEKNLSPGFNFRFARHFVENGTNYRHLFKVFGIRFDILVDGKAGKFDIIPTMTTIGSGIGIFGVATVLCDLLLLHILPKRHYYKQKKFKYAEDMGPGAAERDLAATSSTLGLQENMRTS", "chain of UniProt Q16774 (whole entry, looked up)": "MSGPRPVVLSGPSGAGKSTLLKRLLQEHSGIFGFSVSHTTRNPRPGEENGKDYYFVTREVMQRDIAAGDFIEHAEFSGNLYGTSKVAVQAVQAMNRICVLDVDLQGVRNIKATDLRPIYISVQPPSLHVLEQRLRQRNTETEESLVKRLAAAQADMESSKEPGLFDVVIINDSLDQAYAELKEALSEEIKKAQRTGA", "chain of UniProt P41240 (whole entry, looked up)": "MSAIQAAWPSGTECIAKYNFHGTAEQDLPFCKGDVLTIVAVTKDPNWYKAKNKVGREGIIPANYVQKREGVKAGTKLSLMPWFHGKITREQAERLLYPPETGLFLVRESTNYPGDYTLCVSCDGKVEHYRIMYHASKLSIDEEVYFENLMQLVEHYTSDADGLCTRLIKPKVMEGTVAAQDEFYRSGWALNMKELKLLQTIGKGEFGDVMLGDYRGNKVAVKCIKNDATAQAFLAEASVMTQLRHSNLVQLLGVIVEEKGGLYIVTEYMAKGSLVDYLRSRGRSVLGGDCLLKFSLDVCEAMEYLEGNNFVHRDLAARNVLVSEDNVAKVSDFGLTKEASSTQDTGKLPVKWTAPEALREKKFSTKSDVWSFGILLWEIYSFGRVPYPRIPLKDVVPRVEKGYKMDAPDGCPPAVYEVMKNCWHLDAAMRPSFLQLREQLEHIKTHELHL", "chain of UniProt P07333 (whole entry, looked up)": "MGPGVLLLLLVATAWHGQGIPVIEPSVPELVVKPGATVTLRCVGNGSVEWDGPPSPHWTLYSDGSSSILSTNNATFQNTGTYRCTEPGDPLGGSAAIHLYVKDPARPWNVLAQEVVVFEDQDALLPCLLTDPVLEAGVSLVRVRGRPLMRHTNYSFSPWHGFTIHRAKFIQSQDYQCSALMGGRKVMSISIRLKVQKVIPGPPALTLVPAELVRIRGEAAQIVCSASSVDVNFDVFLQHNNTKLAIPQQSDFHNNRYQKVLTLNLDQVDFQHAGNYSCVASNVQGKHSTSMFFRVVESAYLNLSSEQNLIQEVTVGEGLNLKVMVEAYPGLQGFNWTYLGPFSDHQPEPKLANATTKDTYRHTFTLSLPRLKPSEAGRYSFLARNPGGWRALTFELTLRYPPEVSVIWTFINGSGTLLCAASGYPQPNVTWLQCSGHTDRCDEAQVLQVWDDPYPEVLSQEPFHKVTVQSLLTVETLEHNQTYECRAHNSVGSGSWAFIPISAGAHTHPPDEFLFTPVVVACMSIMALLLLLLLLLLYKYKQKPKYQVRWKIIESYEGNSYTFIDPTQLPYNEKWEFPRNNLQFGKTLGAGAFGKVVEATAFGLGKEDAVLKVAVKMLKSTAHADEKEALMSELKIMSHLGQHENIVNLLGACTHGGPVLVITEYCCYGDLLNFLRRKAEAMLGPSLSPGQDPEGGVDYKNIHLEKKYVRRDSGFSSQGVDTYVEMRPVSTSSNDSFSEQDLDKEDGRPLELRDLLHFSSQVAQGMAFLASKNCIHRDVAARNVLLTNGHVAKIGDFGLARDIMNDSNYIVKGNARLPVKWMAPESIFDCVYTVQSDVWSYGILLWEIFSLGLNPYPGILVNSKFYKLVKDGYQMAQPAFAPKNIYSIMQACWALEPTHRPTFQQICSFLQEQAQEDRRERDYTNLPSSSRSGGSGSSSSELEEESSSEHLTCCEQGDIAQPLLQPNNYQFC", "chain of UniProt P42337 (whole entry, unmodified, looked up)": "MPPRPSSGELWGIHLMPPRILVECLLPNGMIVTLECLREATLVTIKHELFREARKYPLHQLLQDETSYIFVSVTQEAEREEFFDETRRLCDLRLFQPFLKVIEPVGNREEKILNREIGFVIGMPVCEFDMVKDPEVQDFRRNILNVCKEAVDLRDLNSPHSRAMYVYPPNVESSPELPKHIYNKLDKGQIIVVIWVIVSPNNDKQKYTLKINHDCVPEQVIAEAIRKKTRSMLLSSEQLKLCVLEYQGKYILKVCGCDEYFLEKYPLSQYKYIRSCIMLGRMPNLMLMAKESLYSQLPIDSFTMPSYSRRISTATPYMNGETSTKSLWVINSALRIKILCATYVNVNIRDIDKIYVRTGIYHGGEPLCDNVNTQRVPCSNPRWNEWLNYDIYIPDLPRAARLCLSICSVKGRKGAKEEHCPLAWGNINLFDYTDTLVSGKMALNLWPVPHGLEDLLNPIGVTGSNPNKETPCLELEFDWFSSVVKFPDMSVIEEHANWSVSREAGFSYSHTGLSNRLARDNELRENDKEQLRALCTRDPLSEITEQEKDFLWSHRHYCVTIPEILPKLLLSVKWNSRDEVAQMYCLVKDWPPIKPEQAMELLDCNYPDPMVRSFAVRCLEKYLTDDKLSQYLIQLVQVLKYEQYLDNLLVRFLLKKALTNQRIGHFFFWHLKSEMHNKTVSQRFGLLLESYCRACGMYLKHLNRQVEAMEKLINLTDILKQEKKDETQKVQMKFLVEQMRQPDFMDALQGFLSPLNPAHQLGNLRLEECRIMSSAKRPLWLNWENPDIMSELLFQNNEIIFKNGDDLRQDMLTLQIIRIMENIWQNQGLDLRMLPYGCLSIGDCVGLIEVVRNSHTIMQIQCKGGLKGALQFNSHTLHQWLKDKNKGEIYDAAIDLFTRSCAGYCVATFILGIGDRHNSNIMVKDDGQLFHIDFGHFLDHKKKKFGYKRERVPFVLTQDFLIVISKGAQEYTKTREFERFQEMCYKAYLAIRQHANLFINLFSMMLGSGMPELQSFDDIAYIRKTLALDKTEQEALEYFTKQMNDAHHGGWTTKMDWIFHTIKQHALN", "chain of UniProt Q70CQ1 (whole entry, looked up)": "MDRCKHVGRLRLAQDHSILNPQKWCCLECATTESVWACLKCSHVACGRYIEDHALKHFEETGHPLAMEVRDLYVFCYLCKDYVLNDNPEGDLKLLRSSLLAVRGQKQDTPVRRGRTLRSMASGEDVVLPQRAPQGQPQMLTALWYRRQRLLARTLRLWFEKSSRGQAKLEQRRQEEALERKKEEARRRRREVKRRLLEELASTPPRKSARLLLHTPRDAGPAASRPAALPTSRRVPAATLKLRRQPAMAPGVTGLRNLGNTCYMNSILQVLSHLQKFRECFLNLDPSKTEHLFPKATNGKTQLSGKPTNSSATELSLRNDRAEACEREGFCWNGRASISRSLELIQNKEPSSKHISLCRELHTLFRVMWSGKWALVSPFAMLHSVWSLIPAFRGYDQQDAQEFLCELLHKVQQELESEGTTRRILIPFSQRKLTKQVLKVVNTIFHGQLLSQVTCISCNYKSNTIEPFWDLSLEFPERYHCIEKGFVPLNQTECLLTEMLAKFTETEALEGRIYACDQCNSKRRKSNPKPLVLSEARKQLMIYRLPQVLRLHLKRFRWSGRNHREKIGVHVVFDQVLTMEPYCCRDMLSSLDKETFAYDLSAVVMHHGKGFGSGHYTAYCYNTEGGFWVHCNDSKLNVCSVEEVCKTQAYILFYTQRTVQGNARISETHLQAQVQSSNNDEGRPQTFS", "chain of UniProt O15197 (whole entry, looked up)": "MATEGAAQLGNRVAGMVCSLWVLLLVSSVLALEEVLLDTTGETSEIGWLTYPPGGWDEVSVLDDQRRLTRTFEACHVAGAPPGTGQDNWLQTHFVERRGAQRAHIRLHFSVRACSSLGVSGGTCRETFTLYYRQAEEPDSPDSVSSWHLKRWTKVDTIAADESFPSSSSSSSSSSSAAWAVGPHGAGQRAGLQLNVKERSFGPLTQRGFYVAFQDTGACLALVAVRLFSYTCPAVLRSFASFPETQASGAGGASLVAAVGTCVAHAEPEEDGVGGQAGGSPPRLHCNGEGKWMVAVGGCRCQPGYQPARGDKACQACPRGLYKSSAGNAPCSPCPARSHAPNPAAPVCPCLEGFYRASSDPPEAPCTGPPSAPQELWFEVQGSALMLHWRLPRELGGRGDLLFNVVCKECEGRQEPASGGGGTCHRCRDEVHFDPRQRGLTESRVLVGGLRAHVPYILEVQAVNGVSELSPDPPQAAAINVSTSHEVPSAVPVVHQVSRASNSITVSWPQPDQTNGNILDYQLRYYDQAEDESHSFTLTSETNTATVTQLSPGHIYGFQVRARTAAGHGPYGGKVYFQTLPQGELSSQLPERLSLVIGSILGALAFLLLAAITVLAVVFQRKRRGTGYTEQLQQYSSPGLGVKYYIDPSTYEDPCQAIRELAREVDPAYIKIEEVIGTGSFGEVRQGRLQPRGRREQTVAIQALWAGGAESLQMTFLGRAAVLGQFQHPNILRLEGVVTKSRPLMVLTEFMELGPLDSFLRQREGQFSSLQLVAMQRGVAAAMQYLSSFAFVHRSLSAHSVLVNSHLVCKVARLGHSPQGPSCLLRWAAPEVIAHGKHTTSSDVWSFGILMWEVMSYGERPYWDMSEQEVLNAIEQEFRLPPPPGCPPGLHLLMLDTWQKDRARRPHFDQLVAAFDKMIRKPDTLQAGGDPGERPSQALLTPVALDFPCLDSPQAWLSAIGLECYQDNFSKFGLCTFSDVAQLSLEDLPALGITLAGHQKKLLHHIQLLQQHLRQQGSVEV", "chain of UniProt P30043 (whole entry, looked up)": "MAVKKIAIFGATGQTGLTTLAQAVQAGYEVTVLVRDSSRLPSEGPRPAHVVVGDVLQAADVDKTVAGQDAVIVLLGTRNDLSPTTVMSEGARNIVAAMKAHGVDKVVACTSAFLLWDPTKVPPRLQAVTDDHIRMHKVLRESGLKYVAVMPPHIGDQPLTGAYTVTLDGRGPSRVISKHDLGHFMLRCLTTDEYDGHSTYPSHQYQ"}
{"SMILES": "C=CC(=O)N1CCC[C@@H](n2nc(-c3ccc(Oc4ccccc4)cc3)c3c(N)ncnc32)C1", "tested on": "Serine/threonine-protein kinase 24 (STK24, Homo sapiens, UniProt Q9Y6E0)", "assay": "kinase activity, inhibitor, HotSpot radiometric", "setting": "100 nM, added: ATP 10 µM", "quantity": "remaining activity", "value": "95.7 ± 1.3%"}
{"SMILES": "O=C(NC1CCC1)c1ccc2nc(-c3cccc(NS(=O)(=O)NCCN4CCCCC4)c3)cn2c1", "tested on": "Glycogen synthase kinase-3 alpha (GSK3A, Homo sapiens, UniProt P49840)", "assay": "enzyme activity", "setting": "10 µM", "quantity": "remaining activity", "value": "90%"}
{"SMILES": "CN(C(=O)C(C)(C)c1cc(C(F)(F)F)cc(C(F)(F)F)c1)c1cnc(N2C[C@H]3COCCN3C[C@H]2CO)cc1-c1ccc(F)cc1[14CH3]", "assay": "substrate, refers to: M30/34 formation", "test system": "human liver microsomes", "quantity": "Km unbound", "value": "~0.3 µM"}
{"SMILES": "O=C(O)CCn1ccccc1=O", "tested on": "USP49 ZnF-UBD domain", "quantity": "Kd", "value": "> 1000 µM"}
{"SMILES": "Cc1cc(Nc2cc(N3CCN(C)CC3)nc(Sc3ccc(NC(=O)C4CC4)cc3)n2)[nH]n1", "tested on": "CSF1R", "assay": "kinase activity, KinaseProfiler", "setting": "0.03 µM, species human", "how to read": "baseline: control", "quantity": "remaining activity", "value": "87%"}
{"SMILES": "CNCC(=O)O", "tested on": "Sodium- and chloride-dependent glycine transporter 2 (Homo sapiens, UniProt Q9Y345)", "assay": "glycine uptake, inhibitor, [3H]glycine uptake", "setting": "5000 µM, log concentration 5, added: [3H]glycine", "how to read": "baseline: no inhibitor", "quantity": "remaining activity", "value": "50.4%"}
{"SMILES": "COc1cc(N2CCN(C)CC2)ccc1Nc1nc(N)n(C(=S)NCc2c(Cl)cccc2Cl)n1", "tested on": "EPHB6", "assay": "enzyme activity", "setting": "10 µM", "how to read": "baseline: control", "quantity": "remaining activity", "value": "0%"}
{"SMILES": "CN(C)CC#Cc1ccc2[nH]c3c(c2c1)-c1nc(N)ncc1CCC3", "tested on": "Tau-tubulin kinase 1 (TTBK1, Homo sapiens, UniProt Q5TCY1)", "assay": "kinase activity, inhibitor, radiometric", "setting": "1 µM, added: ATP at Km", "quantity": "remaining activity", "value": "92%"}
{"SMILES": "CNc1ncc2c(/C=C/C(=O)N3CCC(OC)CC3)nn(Cc3cccc(C(F)(F)F)c3)c2n1", "tested on": "Dual specificity tyrosine-phosphorylation-regulated kinase 1A (DYRK1A, Homo sapiens, UniProt Q13627)", "assay": "kinase activity, inhibitor", "setting": "1 µM", "how to read": "baseline: untreated control", "quantity": "remaining activity", "value": "98%"}
{"SMILES": "Cc1cc(NC(=O)c2cccc(NC(=O)/C=C/CN(C)C)c2)ccc1Nc1nccc(-c2cccnc2)n1", "tested on": "Mitogen-activated protein kinase 8 (MAPK8, Homo sapiens, UniProt P45983)", "assay": "enzyme activity, inhibitor", "setting": "0.06097 µM, 18 h, unit not given, added: GSH 10 mM pre-incubation", "how to read": "baseline: vehicle", "quantity": "remaining activity", "value": 1.15}
{"SMILES": "CC#CC(=O)N1CCC[C@H]1c1nc(-c2ccc(C(=O)Nc3ccccn3)cc2)c2c(N)nccn12", "tested on": "CSK", "assay": "kinase activity, inhibitor, HotSpot radiometric", "setting": "100 nM, added: ATP 10 µM", "quantity": "remaining activity", "value": "97.75 ± 0.2%"}
{"SMILES": "Nc1ncnc2c1ncn2C1CCCC1", "tested on": "Inositol-tetrakisphosphate 1-kinase (Homo sapiens, UniProt Q13572)", "assay": "enzyme activity, inhibitor, radiometric kinase", "setting": "10 µM, added: ATP 1 mM", "how to read": "baseline: control", "quantity": "remaining activity", "value": "30%"}
{"SMILES": "C=CC(=O)N1CCC(Oc2cc3c(Nc4ccc(Cl)c(Cl)c4F)ncnc3cc2OC)CC1", "assay": "substrate, refers to: metabolite M1 formation", "test system": "rat liver microsomes", "quantity": "Km", "value": "5.99 µM"}
{"SMILES": "COc1cc(Nc2ncc3c(n2)-c2ccc(Cl)cc2C(c2c(F)cccc2OC)=NC3)ccc1C(=O)O", "tested on": "IGF1R", "assay": "kinase activity", "setting": "1 µM", "quantity": "remaining activity", "value": "100%"}
{"SMILES": "Nc1nc(NC2CCCCC2)sc1C(=O)c1ccccc1", "tested on": "AMP-activated protein kinase", "assay": "enzyme activity, inhibitor", "setting": "10 µM", "quantity": "remaining activity", "value": "96%"}
{"SMILES": "O=C1NC(=O)/C(=C/c2ccc(-c3ccc(F)cc3O)o2)S1", "tested on": "Dual specificity protein kinase TTK (TTK, Homo sapiens, UniProt P33981)", "assay": "enzyme activity", "setting": "10 µM", "quantity": "remaining activity", "value": "56%"}
{"SMILES": "O=c1cc(-c2ccccc2)nc2cc(-c3ccco3)[nH]n12", "tested on": "Flavin reductase (NADPH) (BLVRB, Homo sapiens, UniProt P30043)", "setting": "concentration not given", "quantity": "remaining activity", "value": "85%"}
{"SMILES": "Nc1nc2c(ncn2[C@@H]2O[C@H](COP(=O)(O)O)[C@@H](O)[C@H]2O)c(=O)[nH]1", "tested on": "GUK1 (Homo sapiens, UniProt Q16774)", "assay": "enzyme activity, NADH-coupled", "setting": "2000 µM, added: KCl 50 mM", "quantity": "reaction velocity", "value": "0.107 µM/s and 0.112 µM/s and 0.105 µM/s"}
{"SMILES": "Nc1ncnc2c1ncn2[C@@H]1O[C@H](COP(=O)(O)CP(=O)(O)OP(=O)(O)O)[C@@H](O)[C@H]1O", "tested on": "P2X purinoceptor 1 (P2RX1, Homo sapiens, UniProt P51575, S286A)", "assay": "saturation binding", "test system": "HEK293", "setting": "1 nM", "quantity": "specific binding", "value": "268 CCPM and 142 CCPM and 148 CCPM"}
{"SMILES": "NC/C(=C\\F)COc1cccc(Cn2c(=S)[nH]c(=O)c3[nH]cnc32)c1", "tested on": "Peroxidasin homolog (PXDN, Homo sapiens, UniProt Q92626)", "assay": "Amplex UltraRed", "setting": "1.25 µM, mean of replicates", "how to read": "baseline: control", "quantity": "remaining activity", "value": "95.6%"}
{"SMILES": "COc1cc(F)ccc1-c1ncnc(Nc2cccc(C[S@](C)(=N)=O)c2)n1", "tested on": "CSF1R", "assay": "kinase activity", "setting": "10 µM, added: 10 µM ATP", "quantity": "remaining activity", "value": "33%"}
{"SMILES": "COc1cc(-c2cncc3c2CN(C)Cc2cc(N4CCNCC4)ccc2-3)cc(OC)c1OC", "tested on": "Phosphatidylinositol 4,5-bisphosphate 3-kinase catalytic subunit alpha isoform, with p85 alpha (Pik3ca, Mus musculus, UniProt P42337, E545K)", "assay": "kinase activity", "setting": "1 µM, p110a(E545K)/p85a)(m mouse, added: ATP 10 µM", "how to read": "baseline: DMSO", "quantity": "remaining activity", "value": "108%"}
{"SMILES": "O=C(O)CCn1cccn1", "tested on": "USP49 ZnF-UBD domain", "quantity": "Kd", "value": "56 µM"}
{"SMILES": "c1cnc2ccc(Nc3nc(NC4CC4)c4nc[nH]c4n3)cc2c1", "tested on": "Phosphatidylinositol 4-kinase alpha (PI4KA, Homo sapiens, UniProt P42356)", "assay": "kinase activity, inhibitor, SelectScreen kinase profiling", "setting": "1 µM", "how to read": "baseline: control", "quantity": "remaining activity", "value": "94%"}
{"SMILES": "CC(C)C[C@H](NC(=O)C[C@H](O)[C@H](CC(C)C)NC(=O)[C@H](Cc1c[nH]cn1)NC(=O)CNC(=O)[C@@H](NC(=O)[C@H](C)NC(=O)[C@H](Cc1c[nH]c2ccccc12)NC(=O)[C@H](CCC(N)=O)NC(=O)[C@@H](Cc1ccccc1)NC(=O)COCCOCCNC(=O)CCC(C(=O)O)N1CCN(CC(=O)O)CCN(CC(=O)O)CC1)C(C)C)C(N)=O (some centres unmarked) [lutetium-177 labelled]", "test system": "female BALB/c nu/nu mice, lung", "setting": "intravenous, 50 pmol, 24 h", "quantity": "tissue uptake", "value": "0.07 ± 0.04 %ID/g"}
{"SMILES": "O=C(O)c1ccc(Nc2ncc3c(n2)-c2ccc(Cl)cc2C(c2c(F)cccc2F)=NC3)cc1", "tested on": "human IR(h)", "assay": "kinase activity", "setting": "1 µM", "quantity": "remaining activity", "value": "88%"}
{"SMILES": "Cc1ccc(NC(=O)c2ccc(C)c(C(F)(F)F)c2)cc1C#Cc1nn(C2CCC(O)CC2)c2ncnc(N)c12 (centres unmarked)", "tested on": "Phosphatidylinositol 4,5-bisphosphate 3-kinase catalytic subunit alpha isoform, with p85 alpha (Pik3ca, Mus musculus, UniProt P42337)", "assay": "enzyme activity, inhibitor", "setting": "10 µM, p110a/p85a)(m mouse, added: ATP 10 µM", "quantity": "remaining activity", "value": "90%"}
{"SMILES": "Nc1ncc2c(n1)-c1c([nH]c3ccc(-c4ccc(F)cc4)cc13)CCC2", "tested on": "Mitogen-activated protein kinase kinase kinase kinase 5 (MAP4K5, Homo sapiens, UniProt Q9Y4K4)", "assay": "kinase activity, inhibitor, radiometric", "setting": "1 µM, added: ATP at Km", "quantity": "remaining activity", "value": "47%"}
{"SMILES": "COc1ccc(F)cc1C(=O)NCc1ccc(-c2nn([C@@H](C)C(F)(F)F)c(N)c2C(N)=O)cc1", "tested on": "CSK", "assay": "kinase activity, inhibitor, HotSpot radiometric", "setting": "1000 nM, added: ATP at Km", "quantity": "remaining activity", "value": "34.3 ± 0.5%"}
{"SMILES": "C=CC(=O)N1CCC[C@@H](n2nc(-c3ccc(Oc4ccccc4)cc3)c3c(N)ncnc32)C1", "tested on": "Interleukin-1 receptor-associated kinase 1 (IRAK1, Homo sapiens, UniProt P51617)", "setting": "1 µM", "quantity": "remaining activity", "value": "324%"}
{"SMILES": "CCOc1cc(N2CCN(C)CC2)ccc1Nc1nc(N)n(C(=O)NCc2ccccc2S(=O)(=O)C(C)C)n1", "tested on": "EPHB6", "assay": "enzyme activity", "setting": "10 µM", "how to read": "baseline: control", "quantity": "remaining activity", "value": "1.8%"}
{"SMILES": "C=CC(=O)N1CCC([C@@H]2CCNc3c(C(N)=O)c(-c4ccc(Oc5ccccc5)cc4)nn32)CC1", "tested on": "CSK", "assay": "kinase activity, inhibitor, HotSpot radiometric", "setting": "100 nM, added: ATP 10 µM", "quantity": "remaining activity", "value": "88.9 ± 0.4%"}
{"note": "A few entries again:"}
{"SMILES": "c1cnc2ccc(Nc3nc(NC4CC4)c4nc[nH]c4n3)cc2c1", "tested on": "Phosphatidylinositol 4-kinase alpha (PI4KA, Homo sapiens, UniProt P42356)", "assay": "kinase activity, inhibitor, SelectScreen kinase profiling", "setting": "1 µM", "how to read": "baseline: control", "quantity": "remaining activity", "value": "94%"}
{"SMILES": "C=CC(=O)N1CCC[C@@H](n2nc(-c3ccc(Oc4ccccc4)cc3)c3c(N)ncnc32)C1", "tested on": "Interleukin-1 receptor-associated kinase 1 (IRAK1, Homo sapiens, UniProt P51617)", "setting": "1 µM", "quantity": "remaining activity", "value": "324%"}
